Published values pooled from the literature.
Each numbered part is a random draw from the data of one study; scales do not carry over between parts. Positions count from the first letter of the parent shown.

Block 1 — target: TEF, bZIP domain (human); method: DHFR protein complementation; matrix: yeast; relative to: wild-type JUN-FOS pair; reading: higher = stronger binding
Setting: single substitutions, most at no-binding floor
Starting sequence: JUN, bZIP domain (human); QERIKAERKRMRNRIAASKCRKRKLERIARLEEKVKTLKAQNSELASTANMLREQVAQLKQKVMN; partner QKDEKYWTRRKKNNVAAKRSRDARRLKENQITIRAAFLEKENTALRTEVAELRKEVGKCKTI
Variant	binding fitness [natural log]
L31V	-1.28
Q55M	-1.65
L31Q	-1.51
R53Q	-1.39
Q41P	-1.52
N42I	-1.49
V56W	-1.51
Q55E	-1.44
R53S	-1.38
I28H	-1.48
L52Y	-1.23
T37Q	-1.43
E32D	-1.54
L38A	-1.5
A57N	-1.5
V56F	-1.5
K34G	-1.36
M51C	-1.3
T37R	-1.45
V56Y	-1.44
M51G	-1.51
L31S	-1.37
A57P	-1.55
E33S	-1.53
A57H	-1.5

Block 2 — target: CCND2, cyclin fold, Cln2 fusion (human); method: yeast growth competition, sequencing; matrix: yeast; setting: weak parent motif; relative to: not given; reading: higher = stronger binding
Starting sequence: RB1 docking peptide (human); PKPLKKLRFDIEG
Variant	normalised enrichment score
PPPLKKLRFDIEG [K2P]	0.3
PKWLKKLRFDIEG [P3W]	0.364
PKPLKKLRFDGEG [I11G]	0.084
PKPLKALRFDIEG [K6A]	0.502
PKGLKKLRFDIEG [P3G]	0.421
PKPLKKLRFDIMG [E12M]	-0.0775
PKPLQKLRFDIEG [K5Q]	0.3
PKPLKKLRFDIKG [E12K]	-0.379
PKPLKKLRPDIEG [F9P]	-0.0703
PKCLKKLRFDIEG [P3C]	0.927
PCPLKKLRFDIEG [K2C]	0.187
PKPLKKLRTDIEG [F9T]	0.255
PVPLKKLRFDIEG [K2V]	0.56
PKPLKKKRFDIEG [L7K]	0.417
PKPLGKLRFDIEG [K5G]	0.0979
PKPLKKLDFDIEG [R8D]	-0.116
SKPLKKLRFDIEG [P1S]	0.381
NKPLKKLRFDIEG [P1N]	0.007
PKPLKKLRFWIEG [D10W]	-0.7
PKPLKKSRFDIEG [L7S]	0.33
PKPLKKLRFDSEG [I11S]	0.16
PKPLKKNRFDIEG [L7N]	-0.16
WKPLKKLRFDIEG [P1W]	0.324
PKPLKKLRFDIEQ [G13Q]	0.535
PKFLKKLRFDIEG [P3F]	-0.471

Block 3 — method: universal PBM; form: double-stranded DNA, one strand shown; matrix: in vitro; tested at: not given; reading: higher = stronger binding
Target: Sal-like protein 4, full length isoform B (SALL4, Homo sapiens, UniProt Q9UJQ4-2, residues 1-616)
Setting: 8-mer, flanks averaged, mean of replicates
Construct (chain): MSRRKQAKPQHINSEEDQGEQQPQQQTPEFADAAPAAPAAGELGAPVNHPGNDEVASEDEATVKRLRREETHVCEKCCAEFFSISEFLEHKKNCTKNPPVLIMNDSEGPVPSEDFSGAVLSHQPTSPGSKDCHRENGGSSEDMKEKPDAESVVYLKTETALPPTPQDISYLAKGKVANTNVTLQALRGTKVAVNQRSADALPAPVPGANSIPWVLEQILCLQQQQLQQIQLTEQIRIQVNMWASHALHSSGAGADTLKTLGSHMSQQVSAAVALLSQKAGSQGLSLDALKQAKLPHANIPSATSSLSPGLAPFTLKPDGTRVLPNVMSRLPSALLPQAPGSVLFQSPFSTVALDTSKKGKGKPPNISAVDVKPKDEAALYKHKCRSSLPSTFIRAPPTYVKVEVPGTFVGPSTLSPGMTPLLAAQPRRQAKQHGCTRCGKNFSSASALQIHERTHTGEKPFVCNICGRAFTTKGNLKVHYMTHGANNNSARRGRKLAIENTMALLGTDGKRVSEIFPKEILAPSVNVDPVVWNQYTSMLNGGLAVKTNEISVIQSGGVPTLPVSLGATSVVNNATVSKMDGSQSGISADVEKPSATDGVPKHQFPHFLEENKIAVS
Strand	E-score
AAGCGCGC	-0.226
ATAGCCAA	0.129
AATTAAGT	0.333
CTCGAAAG	-0.0908
AATGTGGG	0.123
CACACACC	-0.0469
CGCGATTA	0.0547
ATCCACCC	-0.0444
CAGGCGTA	-0.0132
GGCGGTAA	-0.155
GGATCACC	-0.331
CCCTTGGA	-0.0352
AACAGCCA	0.116
ATGCCCAA	-0.117
ACGTCCTC	-0.162
CGCGCCGC	-0.277
GATGCTGA	-0.109
ATTAGCTG	-0.0106
ATGCTTCA	0.0941
CAGCCTAC	-0.192
CTTCGCAC	-0.0437
AATGCCTC	-0.0949
ACAAGCAG	0.0523
ACGGCGAG	-0.193
GGTTTCAA	0.00597

Block 4 — method: RNA Bind-n-Seq; form: RNA; matrix: in vitro; tested at: 100 nM; relative to: input RNA pool; reading: higher = stronger binding
Target: RING finger protein unkempt homolog, zinc fingers 1-6, SBP tag (UNK, Homo sapiens, UniProt Q9C0B0, residues 30-357)
UniProt Q9C0B0, sequence (30-357, looked up): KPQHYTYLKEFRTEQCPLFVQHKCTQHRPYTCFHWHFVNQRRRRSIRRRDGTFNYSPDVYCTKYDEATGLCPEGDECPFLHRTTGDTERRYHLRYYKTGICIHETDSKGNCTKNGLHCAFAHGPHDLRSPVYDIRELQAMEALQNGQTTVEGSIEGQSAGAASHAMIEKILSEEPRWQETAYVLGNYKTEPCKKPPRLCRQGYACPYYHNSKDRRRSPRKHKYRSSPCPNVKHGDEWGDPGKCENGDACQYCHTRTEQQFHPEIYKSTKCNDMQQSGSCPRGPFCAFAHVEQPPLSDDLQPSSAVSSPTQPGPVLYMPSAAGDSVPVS
Setting: RNA with constant flanks, vertebrate orthologous sites, ends assumed
Constant ends, left off below: GGGAGUUCUACAGUCCGACGAUC … CAACAGAGGAUUGAGCAUCA
Strand	bound/input enrichment
CCGCUAAACCCCAUUUCUUCUGUUUCAUAGUGCAGAAGUGUCCUUUCUCAGUUACAUUAUUAGUGGACUUGUUUUAAUUUUAGGGAAACUUCCAGUACAGAUACUGUGAGCUUACAUGGA	1.13 ratio
CAGAGCAGUUACCUAGUUCGGAGCAGUCCUUACAGGGAUAUUUCGGUUCAGGCAGCGAAGCGGAUGUAUCCUACCAGCAGGAACCAUCCCAUCAGCCCUCCGUGUCCUGCAACCCCUCCA	0.416 ratio
GUUUAGAAUCUUAAUAAAUUGCUCCAAGAUUCCUGAAGUCAGUUCUGUAGGAUCAGACCAUAGGACAGUGGGGGGUGUGUGUGUGCGUAUAUAUACUGUUUCCAAAGUUACGUUUAAAGC	1.48 ratio
UUCAGGCACAACUGACUGGUGCCCAGCAUUCCUUACCUAGUUACCUGUCCAAUGCAGGUGUAGGUAAUUUUCAGGAAACAACCAGGCAGUCAUCCUUAUCCUGUAGUCCAGUAGGAAAUU	0.279 ratio
CAUCUCUAAUUUUAUAUGUCCAAAAUGGCUUUGAAUUUUUAAGCAAUGAUUAGUUUUAAUUUGCUCUCCCUCAUAAAAUACAUUUAUAAUUCACCACGGAUAUCUGUCUGAAUUACUUCA	0.799 ratio
CUUCCUCCAACUUCAGUUUUUCAGGUUGUAGCUGAUCCAUCUUUUCUUCUUCCCUUCCUCUCACUGUUCCUUUCCUUUCUGUCUGCCCAACUUCAGACACAUGAGUUCAUCCCCUUGCAU	1.1 ratio
GGUUGAUGUUCUGAAGAACCACUUGGUAAAAGAAGGUCGAGUAGAUGAAGAAAUUGCGCUUAGAAUUAUCAACGAAGGUGCUGCCAUCCUUCGGAGAGAGAAAACCAUGAUAGAAGUAGA	0.531 ratio
CUGUUGUGUGAAACAUGUCUACCCAGAAAAGUAAUAUUCUAUAAAUACUAUUAAACAACUUAGCUAUAUUAUUUUUAAGCAUUAAAUUAUACAUCAAGGAGUUAAAGUGAAUUUCAGAGU	0.328 ratio
UAUUAGUGUCCUACCAGCAUAUUAACCUCUCGUCUGUGCACAGCUUCCAACGUUACCGUCUAGUUAGAUUUUUAUUUAAAAUAUGAAAAACUGCUUUUCCCAAGACGUUUUUUAAAAACA	1.4 ratio
CUGUUGUUAAGCACUGUGUUCCAGACCAUGUCUGACUUUAGUGUAACCUAGGAGAUUUUAUAGUUUUAUUUUAAUGAAAAACCCUGAUUGGUGCAGAACAGUGGGAAGAGCAGUGUCUUU	3.1 ratio
CAAUUCCAUGGUGGAGGGUUCGGAACUCAAAAAGGUUCGCUCCAACUCUAGAAUUUACCACAGGUAUUUUUUACUGGACGCUGACAUGCAGAGCCUGAGGUGGGAGCCAUCCAAGAAGGA	0.221 ratio

Block 5 — method: DHFR PCA, deep sequencing; matrix: yeast; together with: (+)-ABA 58 µM; relative to: wild-type fitted maximum; reading: higher = stronger binding
Target: ABI1, truncated, D143A, DHFR fusion (Arabidopsis thaliana)
Setting: methotrexate growth selection, single substitutions
Starting sequence: PYL1, truncated, DHFR fusion (Arabidopsis thaliana); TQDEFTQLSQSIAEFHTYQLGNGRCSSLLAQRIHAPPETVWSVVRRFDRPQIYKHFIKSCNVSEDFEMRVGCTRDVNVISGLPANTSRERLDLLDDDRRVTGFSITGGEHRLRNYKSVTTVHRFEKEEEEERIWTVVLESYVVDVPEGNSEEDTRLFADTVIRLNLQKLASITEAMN
Variant	relative binding score
S42H	80.4%
T6K	103%
I33K	-2.89%
L94E	2.86%
V70Q	66.5%
E89K	9.76%
S80E	18.4%
E131G	103%
T6S	94.6%
E125Y	97.8%
E129N	98.7%
V137A	31.8%
F56C	54.3%
L91P	-4.71%
V143T	77.2%
A13L	87.3%
H16D	-17.6%
Q31H	77.8%
L156M	85.9%
I172L	79%
V70L	68.2%
L82I	86%
F5C	89.7%
D153I	-2.54%
V142M	71.6%

Block 6 — method: protein binding microarray; form: double-stranded DNA, one strand shown; matrix: in vitro; tested at: not given; relative to: not given; reading: higher = stronger binding
Target: Histone acetyltransferase KAT6A, winged helix 2, GST fusion (KAT6A, Homo sapiens, UniProt Q92794, residues 85-181)
Setting: 8-mer, flanks averaged, mean of 2 arrays, mostly near background
Construct (chain): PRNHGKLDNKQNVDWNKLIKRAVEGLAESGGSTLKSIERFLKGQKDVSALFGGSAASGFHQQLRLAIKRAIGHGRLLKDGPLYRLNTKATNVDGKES
Strand	E-score
CTACCGTA	-0.206
CCCGAGTC	0.152
GACGGCTC	-0.134
CTACCCCA	-0.0807
AGGGGAAC	0.0543
AAGGTCAT	-0.16
CAAACCGG	-0.0295
CCGGAGAG	0.0468
AATCTCCA	-0.0458
TGCGGTAA	0.123
AAAGAACG	-0.00284
CAAACCGA	0.056
AAATGACT	-0.119
AAGAAGTA	-0.0146
AGTCGAAG	0.0734
CTGCATAA	0.0235
GGCATCCA	-0.094
CATGCCGA	0.225
AAGGGGCA	0.133
CAAGGTGA	-0.092
AGAAGGAC	-0.0483
TAGGTTGA	0.028
AATGCATA	-0.207
CACTACTC	-0.0198
AGGTGATA	-0.124

Excerpt of the above (block 2):
Variant	normalised enrichment score
PKWLKKLRFDIEG [P3W]	0.364
PKPLKKLRFDGEG [I11G]	0.084
PKPLKKLRTDIEG [F9T]	0.255
PKPLKKLDFDIEG [R8D]	-0.116
PKPLKKNRFDIEG [L7N]	-0.16
PKPLGKLRFDIEG [K5G]	0.0979
WKPLKKLRFDIEG [P1W]	0.324
PPPLKKLRFDIEG [K2P]	0.3
PKPLQKLRFDIEG [K5Q]	0.3
